Published values gathered from unrelated publications.
A part holds a random share of what one study measured. Values joined by “and” are separate records of one study, mostly repeats; a detail may differ. Values after ≈ are worked out from the molar mass of the structure shown.
Sequence of UniProt Q96SW2 (whole entry, looked up): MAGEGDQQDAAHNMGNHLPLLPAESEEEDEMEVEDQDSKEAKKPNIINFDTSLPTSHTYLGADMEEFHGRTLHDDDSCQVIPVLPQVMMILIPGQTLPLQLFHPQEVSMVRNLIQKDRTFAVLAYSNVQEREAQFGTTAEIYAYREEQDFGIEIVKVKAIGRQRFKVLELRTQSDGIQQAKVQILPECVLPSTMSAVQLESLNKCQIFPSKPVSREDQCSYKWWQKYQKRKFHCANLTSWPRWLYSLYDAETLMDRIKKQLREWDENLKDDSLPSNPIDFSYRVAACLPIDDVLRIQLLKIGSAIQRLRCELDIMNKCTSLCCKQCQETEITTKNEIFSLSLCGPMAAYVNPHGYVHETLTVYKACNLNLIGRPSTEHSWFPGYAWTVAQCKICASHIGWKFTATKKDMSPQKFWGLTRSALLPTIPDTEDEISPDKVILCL
Sequence of UniProt Q99640 (whole entry, looked up): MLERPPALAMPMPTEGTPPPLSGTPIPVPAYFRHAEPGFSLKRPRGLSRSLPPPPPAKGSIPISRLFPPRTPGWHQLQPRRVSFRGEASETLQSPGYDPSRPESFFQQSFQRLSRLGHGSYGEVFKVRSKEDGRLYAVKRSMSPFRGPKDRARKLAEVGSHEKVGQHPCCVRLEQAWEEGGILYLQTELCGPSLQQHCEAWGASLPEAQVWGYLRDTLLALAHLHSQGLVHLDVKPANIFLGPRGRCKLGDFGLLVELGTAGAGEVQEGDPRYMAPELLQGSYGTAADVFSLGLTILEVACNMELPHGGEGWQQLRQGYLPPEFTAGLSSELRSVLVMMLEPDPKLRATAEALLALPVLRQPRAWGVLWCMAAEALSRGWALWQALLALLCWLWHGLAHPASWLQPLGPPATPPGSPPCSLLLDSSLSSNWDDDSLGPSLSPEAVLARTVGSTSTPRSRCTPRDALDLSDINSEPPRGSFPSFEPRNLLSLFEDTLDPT
Sequence of UniProt Q695T7 (whole entry, looked up): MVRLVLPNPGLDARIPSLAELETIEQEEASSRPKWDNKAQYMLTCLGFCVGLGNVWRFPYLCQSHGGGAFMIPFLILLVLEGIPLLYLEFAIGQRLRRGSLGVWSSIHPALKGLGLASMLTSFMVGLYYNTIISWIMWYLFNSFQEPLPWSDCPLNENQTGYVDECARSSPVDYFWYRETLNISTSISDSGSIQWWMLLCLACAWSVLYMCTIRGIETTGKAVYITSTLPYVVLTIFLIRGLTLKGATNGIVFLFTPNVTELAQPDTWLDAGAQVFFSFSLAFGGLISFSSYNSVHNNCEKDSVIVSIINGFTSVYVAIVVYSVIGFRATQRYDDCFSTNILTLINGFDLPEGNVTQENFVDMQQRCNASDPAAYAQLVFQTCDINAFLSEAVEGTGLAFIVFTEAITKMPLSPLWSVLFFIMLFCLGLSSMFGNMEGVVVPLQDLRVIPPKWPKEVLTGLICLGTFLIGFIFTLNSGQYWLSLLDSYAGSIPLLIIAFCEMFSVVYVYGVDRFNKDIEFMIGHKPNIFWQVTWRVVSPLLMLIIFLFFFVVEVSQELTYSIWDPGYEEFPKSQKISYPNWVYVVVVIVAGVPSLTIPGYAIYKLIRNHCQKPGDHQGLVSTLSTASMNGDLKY
Sequence of UniProt Q9UKS7 (whole entry, looked up): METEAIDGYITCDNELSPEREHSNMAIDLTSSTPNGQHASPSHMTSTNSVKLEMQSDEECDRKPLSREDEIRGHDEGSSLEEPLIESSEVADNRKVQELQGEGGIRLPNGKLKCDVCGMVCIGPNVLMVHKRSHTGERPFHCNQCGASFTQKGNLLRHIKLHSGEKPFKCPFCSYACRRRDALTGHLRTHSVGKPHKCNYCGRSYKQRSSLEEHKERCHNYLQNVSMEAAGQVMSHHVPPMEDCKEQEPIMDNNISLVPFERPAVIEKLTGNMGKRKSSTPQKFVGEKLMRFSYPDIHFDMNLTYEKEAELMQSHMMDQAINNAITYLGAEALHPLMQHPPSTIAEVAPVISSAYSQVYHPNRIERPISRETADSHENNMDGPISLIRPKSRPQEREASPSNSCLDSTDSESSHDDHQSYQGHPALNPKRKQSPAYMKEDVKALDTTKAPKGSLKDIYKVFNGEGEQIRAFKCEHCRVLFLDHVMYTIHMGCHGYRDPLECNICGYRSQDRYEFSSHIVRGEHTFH

Block 1
SMILES: CCCCC[C@@H](O)CC(=O)N[C@H]1COC(=O)[C@H](CO)NC(=O)[C@H](Cc2ccccc2)NC(=O)[C@@H](Cc2c[nH]c3ccccc23)NC(=O)[C@@H](C(C)O)NC(=O)[C@H](CC(N)=O)NC(=O)[C@@H](C(C)C)NC(=O)[C@H](CC(C)C)NC(=O)[C@@H](Cc2ccc(O)cc2)N(C)C(=O)CNC(=O)[C@H](CO)NC(=O)[C@@H](CC(N)=O)NC1=O (stereo partly shown)
Organism: Staphylococcus aureus
Strain: USA300
setting | MIC [µg/mL]
with: menaquinone 1 µg/mL | 16 (≈ 10.6 µM)
with: menaquinone 16 µg/mL | > 64
with: menaquinone 0.5 µg/mL | 16 (≈ 10.6 µM)
with: menaquinone 0.25 µg/mL | 16 (≈ 10.6 µM)

Other studies, line by line
Structure (SMILES) | target or system | assay | system | setting | how to read | measurement | result
O=C1CC[C@@H](Nc2ccc(N3CCNCC3)c(F)c2)C(=O)N1 | Protein cereblon (CRBN, Homo sapiens, UniProt Q96SW2) | binding | – | 30000 nM | – | inhibition | 99.2% and 81.6%
Cn1cc(-c2cccc(CN3CCC4(CC3)COc3c4ccc4c3CN([C@H]3CCC(=O)NC3=O)C4=O)c2)cn1 | Jurkat | – | – | 1000 nM, 24 h, with: CD3/CD28 beads, 1:4 | – | IL-2 level | 148 pg/mL and 138 pg/mL and 173 pg/mL
Cc1ccc(O)c(C)c1-c1cnc2[nH]c(-c3cnc(N4CCC(CN5CCN(c6ccc(N7CCC(=O)NC7=O)cc6F)CC5)CC4)nc3)cc2c1C#N | Membrane-associated tyrosine- and threonine-specific cdc2-inhibitory kinase (PKMYT1, Homo sapiens, UniProt Q99640) | binding, HTRF | – | 12.35 nM | – | inhibition | 85% and 85.7%
O=C1CCC(N2Cc3c(ccc4c3OCC43CCN(Cc4ccccc4)CC3O)C2=O)C(=O)N1 (stereo not shown) | CRBN/Zinc finger protein Helios (Homo sapiens, UniProt Q96SW2+Q9UKS7) | degrader, HiBiT | HEK293 | 10000 nM | – | protein remaining | 64.5%
Cc1ccc(O)c(C)c1-c1cnc2[nH]c(-c3cnc(N4CCC(CN5CCN(c6ccc7c8c(cccc68)C(=O)N7C6CCC(=O)NC6=O)CC5)CC4)nc3)cc2c1C#N (racemic) | HCC1569 | in-cell western, refers to: CDK1 phospho-Thr14 | – | 333.33 nM | – | pCDK1 (Thr14) level | 18.8% and 9.91%
CCCNC(=O)COc1ccc(Br)c(C)c1 | Sodium-dependent neutral amino acid transporter B(0)AT1 (SLC6A19, Homo sapiens, UniProt Q695T7) | inhibitor, FLIPR membrane potential | CHO-BC cells | 0.03 µM, unit not given | relative to: uninhibited cells | remaining transport activity | 0.77

Some of these lines once more (other studies, line by line):
Structure (SMILES) | target or system | assay | system | setting | how to read | measurement | result
O=C1CCC(N2Cc3c(ccc4c3OCC43CCN(Cc4ccccc4)CC3O)C2=O)C(=O)N1 (stereo not shown) | CRBN/Zinc finger protein Helios (Homo sapiens, UniProt Q96SW2+Q9UKS7) | degrader, HiBiT | HEK293 | 10000 nM | – | protein remaining | 64.5%
